Published values from different studies.
Lines come from different studies, so protocols differ. ± gives the spread as reported.

The tissue uptake of `CCCC[C@H](NC(=O)[C@H](Cc1cccs1)NC(=O)[C@H](Cc1c[nH]cn1)NC(=O)CCNC(=O)[C@@H](NC(=O)[C@H](C)NC(=O)[C@H](Cc1c[nH]c2ccccc12)NC(=O)[C@H](CCC(N)=O)NC(=O)[C@H](Cc1cccs1)NC(=O)CN1CCC(NC(=O)CN(CCN(CCN(CC(=O)O)CC(=O)O)CC(=O)O)CC(=O)O)CC1)C(C)C)C(N)=O` [indium-111 labelled] is reported as 0.6 ± 0.3 %ID/g (male Swiss nu/nu mice, PC-3 tumour, kidney; intravenous, 10 pmol, 24 h).
`CSCC[C@H](NC(=O)[C@H](CC(=O)O)NC(=O)[C@H](CO)NC(=O)[C@H](Cc1c[nH]cn1)NC(=O)[C@H](Cc1c[nH]c2ccccc12)NC(=O)CN1CCN(CC(=O)O)CCN(CC(=O)O)CCN(CC(=O)O)CC1)C(=O)N[C@@H](CCC(=O)O)C(=O)N[C@@H](Cc1c[nH]c2ccccc12)C(=O)N[C@@H](Cc1c[nH]c2ccccc12)C(=O)N[C@@H](Cc1ccc(O)cc1)C(=O)N[C@@H](CC(C)C)C(=O)N[C@@H](CC(C)C)C(=O)NCC(=O)O` [copper-64 labelled] gave a tissue uptake of 2.11 %ID/g (gamma counting; nude mice bearing HT-29 tumours, blood; intravenous, 0.74 MBq (0.02 nmol), 4 h).
The tissue uptake of `CSCC[C@H](NC(=O)[C@H](CC(C)C)NC(=O)[C@H](Cc1c[nH]cn1)NC(=O)CNC(=O)[C@@H](NC(=O)[C@H](C)NC(=O)[C@H](Cc1c[nH]c2ccccc12)NC(=O)[C@H](CCC(N)=O)NC(=O)[C@H](CC(N)=O)NC(=O)CNC(=O)[C@H](Cc1ccc(O)cc1)NC(=O)[C@H](CCCNC(=N)N)NC(=O)[C@H](CCC(N)=O)NC(=O)[C@@H]1CCCN1C(=O)CN1CCN(CC(=O)O)CCN(CC(=O)O)CCN(CC(=O)O)CC1)C(C)C)C(N)=O` [indium-111 labelled] is reported as 10.6 ± 1.6 %ID/g (male Swiss nu/nu mice, PC-3 tumour, kidney; intravenous, 10 pmol, 4 h).
`N=C(N)NCCC[C@@H]1NC(=O)[C@H](CCCCNC(=O)CNC(=O)CNC(=O)CNC(=O)CC[C@H](NC(=O)CCOCCOCCOCCOCCNC(=O)CC[C@H](NC(=O)CN2CCN(CC(=O)O)CCN(CC(=O)O)CCN(CC(=O)O)CC2)C(=O)NCCOCCOCCOCCOCCC(=O)N[C@@H](CCC(=O)NCC(=O)NCC(=O)NCC(=O)NCCCC[C@@H]2NC(=O)[C@@H](Cc3ccccc3)NC(=O)[C@H](CC(=O)O)NC(=O)CNC(=O)[C@H](CCCNC(=N)N)NC2=O)C(=O)NCC(=O)NCC(=O)NCC(=O)NCCCC[C@@H]2NC(=O)[C@@H](Cc3ccccc3)NC(=O)[C@H](CC(=O)O)NC(=O)CNC(=O)[C@H](CCCNC(=N)N)NC2=O)C(=O)NCC(=O)NCC(=O)NCC(=O)NCCCC[C@@H]2NC(=O)[C@@H](Cc3ccccc3)NC(=O)[C@H](CC(=O)O)NC(=O)CNC(=O)[C@H](CCCNC(=N)N)NC2=O)NC(=O)[C@@H](Cc2ccccc2)NC(=O)[C@H](CC(=O)O)NC(=O)CNC1=O` [indium-111 labelled] gave a tissue uptake of 0.13 %ID/g (female athymic nude mice, blood; intravenous, 3 µCi, 1 h, U-87 MG glioma xenograft).
`CSCC[C@H](NC(=O)[C@H](CC(C)C)NC(=O)[C@H](Cc1c[nH]cn1)NC(=O)CNC(=O)[C@@H](NC(=O)[C@H](C)NC(=O)[C@H](Cc1c[nH]c2ccccc12)NC(=O)[C@H](CCC(N)=O)NC(=O)CCCCCCCNC(=O)CCC(=O)Nc1ccc(CNC23CNCCNCC(N)(CNCCNC2)CNCCNC3)cc1)C(C)C)C(N)=O` [copper-64 labelled] gave a tissue uptake of 13 ± 0.932 %ID/g (female SCID mice, PC-3 xenograft, tumour; intravenous, 0.6 MBq, 1 h).
With `CC(C)C[C@H](NC(=O)[C@H](Cc1ccc(O)cc1)NC(=O)[C@@H](CCCNC(=N)N)NC(=O)[C@@H](CO)NC(=O)[C@H](Cc1ccccc1)NC(=O)[C@H](CC1CCCCC1)NC(=O)[C@H](CC(=O)O)NC(=O)CCC(C(=O)O)N1CCCN2CCN(CCCN(CC(=O)O)CC2)CC1)C(=O)N[C@@H](Cc1c[nH]c2ccccc12)C(=O)N[C@@H](CO)C(=O)O` (some centres unmarked) [copper-64 labelled] the tissue uptake was 2.8 ± 0.3 %ID/g (female NMRI nude mice, spleen; 1 h p.i.).
The tissue uptake of `N=C(N)NCCC[C@@H]1NC(=O)[C@H](CCCCNC(=O)CCOCCOCCOCCOCCNC(=O)CN2CCN(CC(=O)O)CCN(CC(=O)O)CCN(CC(=O)O)CC2)NC(=O)[C@@H](Cc2ccccc2)NC(=O)[C@H](CC(=O)O)NC(=O)CNC1=O` [indium-111 labelled] is reported as 0.47 ± 0.07 %ID/g (female athymic nude mice, liver; intravenous, 3 µCi, 24 h, U-87 MG glioma xenograft).
`CSCC[C@H](NC(=O)[C@H](CC(C)C)NC(=O)[C@H](Cc1c[nH]cn1)NC(=O)CNC(=O)[C@@H](NC(=O)[C@H](C)NC(=O)[C@H](Cc1c[nH]c2ccccc12)NC(=O)[C@H](CCC(N)=O)NC(=O)CCCCNC(=O)CSCCSCCP(CO)CO)C(C)C)C(N)=O` [technetium-99m labelled] gave a tissue uptake of 0 %ID (CF-1 mice, female, brain; intravenous, 4 h).
With `N=C(N)NCCC[C@@H]1NC(=O)[C@H](CCCCNC(=O)CC[C@H](NC(=O)CCOCCOCCOCCOCCNC(=O)CN2CCN(CC(=O)O)CCN(CC(=O)O)CCN(CC(=O)O)CC2)C(=O)NCCCC[C@@H]2NC(=O)[C@@H](Cc3ccccc3)NC(=O)[C@H](CC(=O)O)NC(=O)CNC(=O)[C@H](CCCNC(=N)N)NC2=O)NC(=O)[C@@H](Cc2ccccc2)NC(=O)[C@H](CC(=O)O)NC(=O)CNC1=O` [indium-111 labelled] the tissue uptake was 0.94 ± 0.18 %ID/g (female athymic nude mice, eyes; intravenous, 3 µCi, 0.5 h, U-87 MG glioma xenograft).
With `CC(C)[C@H](NC(=O)[C@H](C)N)C(=O)N[C@@H](CCCNC(=N)N)C(=O)N[C@H](C(=O)N[C@@H](CO)C(=O)N[C@@H](C)C(=O)N[C@@H](CC(=O)O)C(=O)NCCOCCOCCOCCOCCC(=O)N[C@@H](CCCCNC(=O)CN1CCN(CC(=O)O)CCN(CC(=O)O)CC1)C(=O)O)[C@@H](C)O` [fluorine-18 labelled] the tissue uptake was 4.96 ± 0.2 %ID/g (gamma counting; BALB/c nude mice, female, subcutaneous tumour, kidney; intravenous, 3.7 MBq, 2 h).
`N=C(N)NCCC[C@@H]1NC(=O)[C@H](CCCCNC(=O)CCOCCOCCOCCOCCNC(=O)CC[C@H](NC(=O)[C@H](CCCCNC(=O)c2ccc(NN)nc2)NC(=O)c2ccc(NN)nc2)C(=O)NCCOCCOCCOCCOCCC(=O)NCCCC[C@@H]2NC(=O)[C@@H](Cc3ccccc3)NC(=O)[C@H](CC(=O)O)NC(=O)CNC(=O)[C@H](CCCNC(=N)N)NC2=O)NC(=O)[C@@H](Cc2ccccc2)NC(=O)[C@H](CC(=O)O)NC(=O)CNC1=O` [technetium-99m labelled] has a tissue uptake of 0.99 ± 0.04 %ID/g (female athymic nude mice, blood; intravenous, 0.1 MBq, 1 h, U-87 MG glioma xenograft).
With `N=C(N)NCCC[C@@H]1NC(=O)[C@H](CCCCNC(=O)CCOCCOCCOCCOCCNC(=O)CC[C@H](NC(=O)CCOCCOCCOCCOCCNC(=O)CC[C@H](NC(=O)CN2CCN(CC(=O)O)CCN(CC(=O)O)CCN(CC(=O)O)CC2)C(=O)NCCOCCOCCOCCOCCC(=O)N[C@@H](CCC(=O)NCCOCCOCCOCCOCCC(=O)NCCCC[C@@H]2NC(=O)[C@@H](Cc3ccccc3)NC(=O)[C@H](CC(=O)O)NC(=O)CNC(=O)[C@H](CCCNC(=N)N)NC2=O)C(=O)NCCOCCOCCOCCOCCC(=O)NCCCC[C@@H]2NC(=O)[C@@H](Cc3ccccc3)NC(=O)[C@H](CC(=O)O)NC(=O)CNC(=O)[C@H](CCCNC(=N)N)NC2=O)C(=O)NCCOCCOCCOCCOCCC(=O)NCCCC[C@@H]2NC(=O)[C@@H](Cc3ccccc3)NC(=O)[C@H](CC(=O)O)NC(=O)CNC(=O)[C@H](CCCNC(=N)N)NC2=O)NC(=O)[C@@H](Cc2ccccc2)NC(=O)[C@H](CC(=O)O)NC(=O)CNC1=O` [indium-111 labelled] the tissue uptake was 1.67 ± 0.18 %ID/g (athymic nude mice, female, U-87 MG glioma xenograft, spleen; intravenous, 3 µCi, 24 h).
With `N=C(N)NCCC[C@@H]1NC(=O)[C@H](CCCCNC(=O)CCOCCOCCOCCOCCNC(=O)CC[C@H](NC(=O)CCOCCOCCOCCOCCNC(=O)[C@H](CCCCNC(=O)c2ccc(NN)nc2)NC(=O)c2ccc(NN)nc2)C(=O)NCCOCCOCCOCCOCCC(=O)NCCCC[C@@H]2NC(=O)[C@@H](Cc3ccccc3)NC(=O)[C@H](CC(=O)O)NC(=O)CNC(=O)[C@H](CCCNC(=N)N)NC2=O)NC(=O)[C@@H](Cc2ccccc2)NC(=O)[C@H](CC(=O)O)NC(=O)CNC1=O` [technetium-99m labelled] the tissue uptake was 2.68 ± 0.4 %ID/g (female athymic nude mice, lungs; intravenous, 0.1 MBq, 1 h, U-87 MG glioma xenograft).
With `N=C(N)NCCC[C@@H]1NC(=O)[C@H](CC(=O)NC23CNCCNCC(N)(CNCCNC2)CNCCNC3)NC(=O)[C@@H](Cc2ccccc2)NC(=O)[C@H](CC(=O)O)NC(=O)CNC1=O` [copper-64 labelled] the tissue uptake was 3.17 ± 0.96 %ID/g (male nude tumour-bearing mice, kidney; iv, 10 µCi, 4 h).

A few entries again:
`N=C(N)NCCC[C@@H]1NC(=O)[C@H](CCCCNC(=O)CNC(=O)CNC(=O)CNC(=O)CC[C@H](NC(=O)CCOCCOCCOCCOCCNC(=O)CC[C@H](NC(=O)CN2CCN(CC(=O)O)CCN(CC(=O)O)CCN(CC(=O)O)CC2)C(=O)NCCOCCOCCOCCOCCC(=O)N[C@@H](CCC(=O)NCC(=O)NCC(=O)NCC(=O)NCCCC[C@@H]2NC(=O)[C@@H](Cc3ccccc3)NC(=O)[C@H](CC(=O)O)NC(=O)CNC(=O)[C@H](CCCNC(=N)N)NC2=O)C(=O)NCC(=O)NCC(=O)NCC(=O)NCCCC[C@@H]2NC(=O)[C@@H](Cc3ccccc3)NC(=O)[C@H](CC(=O)O)NC(=O)CNC(=O)[C@H](CCCNC(=N)N)NC2=O)C(=O)NCC(=O)NCC(=O)NCC(=O)NCCCC[C@@H]2NC(=O)[C@@H](Cc3ccccc3)NC(=O)[C@H](CC(=O)O)NC(=O)CNC(=O)[C@H](CCCNC(=N)N)NC2=O)NC(=O)[C@@H](Cc2ccccc2)NC(=O)[C@H](CC(=O)O)NC(=O)CNC1=O` [indium-111 labelled] gave a tissue uptake of 0.13 %ID/g (female athymic nude mice, blood; intravenous, 3 µCi, 1 h, U-87 MG glioma xenograft).
